Results pooled from the literature.
Each numbered part is a random draw from the data of one study; scales do not carry over between parts. Changes are numbered by the printed parent chain.

Block 1 — method: universal PBM; form: double-stranded DNA, one strand shown; sample: in vitro; tested at: 600 nM; direction: higher = stronger binding; endpoint: E-score
Target: Sal-like protein 4, full length isoform A (SALL4, Homo sapiens, UniProt Q9UJQ4, residues 1-1053)
Chain of UniProt Q9UJQ4 (whole entry, looked up): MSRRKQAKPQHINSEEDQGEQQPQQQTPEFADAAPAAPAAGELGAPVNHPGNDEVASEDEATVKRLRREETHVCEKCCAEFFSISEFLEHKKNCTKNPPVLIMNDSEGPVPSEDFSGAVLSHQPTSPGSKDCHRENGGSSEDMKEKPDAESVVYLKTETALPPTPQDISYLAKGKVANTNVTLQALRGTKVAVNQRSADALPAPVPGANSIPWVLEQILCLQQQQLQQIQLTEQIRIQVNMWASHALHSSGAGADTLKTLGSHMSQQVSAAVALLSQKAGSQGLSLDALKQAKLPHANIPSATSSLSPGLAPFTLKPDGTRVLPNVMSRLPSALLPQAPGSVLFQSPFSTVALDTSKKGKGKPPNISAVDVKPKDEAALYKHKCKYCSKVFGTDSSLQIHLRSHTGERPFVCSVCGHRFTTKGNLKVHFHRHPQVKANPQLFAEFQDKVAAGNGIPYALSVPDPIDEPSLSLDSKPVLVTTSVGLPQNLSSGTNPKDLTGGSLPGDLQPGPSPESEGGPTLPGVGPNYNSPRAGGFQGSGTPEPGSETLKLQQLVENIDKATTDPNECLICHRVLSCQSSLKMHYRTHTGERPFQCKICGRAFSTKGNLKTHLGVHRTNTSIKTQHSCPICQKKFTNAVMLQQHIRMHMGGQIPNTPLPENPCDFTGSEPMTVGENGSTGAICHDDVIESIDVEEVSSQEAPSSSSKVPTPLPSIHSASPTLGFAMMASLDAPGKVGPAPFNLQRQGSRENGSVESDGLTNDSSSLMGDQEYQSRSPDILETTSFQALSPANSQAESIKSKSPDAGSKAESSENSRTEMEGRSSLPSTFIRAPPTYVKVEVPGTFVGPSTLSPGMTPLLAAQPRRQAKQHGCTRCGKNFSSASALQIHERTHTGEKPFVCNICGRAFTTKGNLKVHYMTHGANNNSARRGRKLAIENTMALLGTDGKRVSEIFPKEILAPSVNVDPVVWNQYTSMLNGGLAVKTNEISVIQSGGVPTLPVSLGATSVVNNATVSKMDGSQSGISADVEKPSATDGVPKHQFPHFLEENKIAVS
Notes: 8-mer, flanks averaged, mean of replicates
Sequence = AGATTCCG; result = -0.0223
Sequence = ACACGGGG; result = -0.327
Sequence = AATTACGT; result = 0.147
Sequence = ATCGATGC; result = 0.074
Sequence = AGGTTAAA; result = 0.215
Sequence = ACAGGCAA; result = 0.0791
Sequence = AAACGGCC; result = -0.171
Sequence = AATTCAAC; result = 0.14

Block 2 — method: protein-binding microarray; form: double-stranded DNA, one strand shown; sample: in vitro; tested at: 940 nM top; notes: 60-bp whole probe; with: salmon DNA 0.4 mg/ml; baseline: random background probes; direction: higher = stronger binding; endpoint: fitted relative affinity; shared flanks, not repeated: GCCTAGCAC … GTCTTGATTCGCTTGACGCTGCTG
Target: Interferon regulatory factor 5, full length, phosphomimetic (IRF5, Homo sapiens, UniProt Q13568-2, residues 1-514, S451D/S453D/S456D/S462D)
Sequence = GACGGTATCCTTCTCCTGACGTGCTAG; result = 0.781 z-score
Sequence = TAAGGACTGGGGTTTCGGTTAGTGCTA; result = 5.69 z-score
Sequence = TTCTTTTCCATTTTGTGTTTGTGCTAG; result = 2 z-score
Sequence = TTAGGTTTCCTTTCCCTTTAGTGCTAG; result = 2.39 z-score
Sequence = TACCCTTTGAAAGTTGTTTTAGTGCTA; result = -0.0291 z-score
Sequence = TTAGGACTGCTTTACCTTTAGTGCTAG; result = -0.0476 z-score
Sequence = TCATCTCCCAAGTCTTGTACTGTGCTA; result = 0.793 z-score
Sequence = AGATTTTTTTTCCTAATTGAGTGCTAG; result = 1.11 z-score

Block 3 — target: CCNB3, cyclin fold, Cln2 fusion (human); method: yeast growth competition, sequencing; sample: yeast; notes: strong parent motif; baseline: not given; direction: higher = stronger binding; endpoint: normalised enrichment score
Starting sequence: viral docking peptide; YKVKRRLVFGADD; partner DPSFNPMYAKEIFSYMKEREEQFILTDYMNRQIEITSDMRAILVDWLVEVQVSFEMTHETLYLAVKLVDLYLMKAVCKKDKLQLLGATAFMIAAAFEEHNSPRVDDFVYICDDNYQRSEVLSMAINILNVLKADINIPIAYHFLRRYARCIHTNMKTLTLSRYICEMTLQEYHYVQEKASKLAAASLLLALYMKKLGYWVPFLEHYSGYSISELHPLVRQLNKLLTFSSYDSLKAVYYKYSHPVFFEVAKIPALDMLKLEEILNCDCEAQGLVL
Change = V8R; result = 0.747
Change = K4C; result = 1.86
Change = V8A; result = 0.769
Change = L7K; result = -0.275
Change = V3T; result = 0.278
Change = G10C; result = 1.76
Change = G10A; result = 1.24
Change = D12S; result = 1.66
Change = G10W; result = 0.778
Change = R5D; result = 0.0697
Change = R6C; result = 0.313
Change = L7H; result = -0.303
Change = V8G; result = 0.697
Change = L7T; result = -0.133
Change = G10F; result = 0.896
Change = D13A; result = 1.09
Change = V8K; result = 1.74

Block 4 — effect on: peptide-MHC binding; form: peptide; tested at: concentration not given; endpoint: binding
Target: HLA class I histocompatibility antigen, A alpha chain, allele A*25:01 (Homo sapiens, UniProt P04439)
Sequence = TEFFMSRKL; result = inactive
Sequence = KTFEWGVFY; result = inactive
Sequence = LVTARQKLK; result = inactive
Sequence = VQPWLMVDV; result = inactive
Sequence = EFVSANLAM; result = inactive
Sequence = SIKFKRKLM; result = inactive
Sequence = VTSSVSSGY; result = inactive

For quick reference, copied from above (block 2):
Sequence = TTAGGTTTCCTTTCCCTTTAGTGCTAG; result = 2.39 z-score
Sequence = AGATTTTTTTTCCTAATTGAGTGCTAG; result = 1.11 z-score
Sequence = TACCCTTTGAAAGTTGTTTTAGTGCTA; result = -0.0291 z-score
